Results gathered from unrelated publications.
Every numbered part comes from another study and shows a few of its results, in no order.

Set 1
Target: Histone acetyltransferase KAT6A, winged helix 1, GST fusion (KAT6A, Homo sapiens, UniProt Q92794, residues 1-85)
Method: protein binding microarray
Molecule type: double-stranded DNA, one strand shown
Medium: in vitro
Concentration: not given
Setting: 8-mer, flanks averaged, mean of 2 arrays, mostly near background
Relative to: not given
Direction: higher = stronger binding
Quantity: E-score
Residues (chain): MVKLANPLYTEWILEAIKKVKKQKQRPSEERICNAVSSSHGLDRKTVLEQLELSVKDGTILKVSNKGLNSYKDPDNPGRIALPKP
Oligonucleotide = ACCTTCAC; result = -0.118
Oligonucleotide = TAGCTATA; result = -0.0602
Oligonucleotide = CGTCTCGA; result = -0.116
Oligonucleotide = CCATATGA; result = -0.116
Oligonucleotide = CTCTATGC; result = 0.049

Set 2
Target: Interferon regulatory factor 7, full length, phosphomimetic (IRF7, Homo sapiens, UniProt Q92985, residues 1-503, S101K/S471D/S472D/S475D/S476D/S477D/S483D/S484D/S487D)
Chain of UniProt Q92985 (whole entry, unmodified, looked up): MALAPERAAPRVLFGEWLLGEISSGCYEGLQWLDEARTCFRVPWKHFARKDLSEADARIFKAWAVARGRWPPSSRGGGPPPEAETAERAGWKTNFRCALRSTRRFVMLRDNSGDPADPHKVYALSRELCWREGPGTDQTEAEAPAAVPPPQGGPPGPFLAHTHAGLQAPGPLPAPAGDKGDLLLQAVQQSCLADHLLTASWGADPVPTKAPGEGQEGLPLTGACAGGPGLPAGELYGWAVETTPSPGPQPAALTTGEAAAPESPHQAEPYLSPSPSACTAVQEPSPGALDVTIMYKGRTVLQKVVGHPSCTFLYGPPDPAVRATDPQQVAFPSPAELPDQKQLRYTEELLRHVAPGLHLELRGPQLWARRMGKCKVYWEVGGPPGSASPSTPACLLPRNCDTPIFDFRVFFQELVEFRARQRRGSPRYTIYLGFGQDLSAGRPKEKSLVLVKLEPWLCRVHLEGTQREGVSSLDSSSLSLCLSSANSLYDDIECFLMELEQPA
Method: protein-binding microarray
Molecule type: double-stranded DNA, one strand shown
Medium: in vitro
Concentration: 250 nM
Setting: 60-bp whole probe
With: salmon DNA 0.4 mg/ml
Relative to: random background probes
Direction: higher = stronger binding
Quantity: log fluorescence
Oligonucleotide = GCCTAGCACTCAGTTTTCATTATTGTACTGTGCTAGGTCTTGATTCGCTTGACGCTGCTG; result = 1.45 z-score
Oligonucleotide = GCCTAGCACTCATTTTTCTTTTATTAACTGTGCTAGGTCTTGATTCGCTTGACGCTGCTG; result = 2.51 z-score
Oligonucleotide = GCCTAGCACTTAGATTTCGGGTTTGGATTAGTGCTAGTCTTGATTCGCTTGACGCTGCTG; result = 1.86 z-score

Mixed results
SP1: Transcription factor Sp1 (SP1, Homo sapiens, UniProt P08047, residues 1-785, full length assumed)
Chain of UniProt P08047 (whole entry, looked up): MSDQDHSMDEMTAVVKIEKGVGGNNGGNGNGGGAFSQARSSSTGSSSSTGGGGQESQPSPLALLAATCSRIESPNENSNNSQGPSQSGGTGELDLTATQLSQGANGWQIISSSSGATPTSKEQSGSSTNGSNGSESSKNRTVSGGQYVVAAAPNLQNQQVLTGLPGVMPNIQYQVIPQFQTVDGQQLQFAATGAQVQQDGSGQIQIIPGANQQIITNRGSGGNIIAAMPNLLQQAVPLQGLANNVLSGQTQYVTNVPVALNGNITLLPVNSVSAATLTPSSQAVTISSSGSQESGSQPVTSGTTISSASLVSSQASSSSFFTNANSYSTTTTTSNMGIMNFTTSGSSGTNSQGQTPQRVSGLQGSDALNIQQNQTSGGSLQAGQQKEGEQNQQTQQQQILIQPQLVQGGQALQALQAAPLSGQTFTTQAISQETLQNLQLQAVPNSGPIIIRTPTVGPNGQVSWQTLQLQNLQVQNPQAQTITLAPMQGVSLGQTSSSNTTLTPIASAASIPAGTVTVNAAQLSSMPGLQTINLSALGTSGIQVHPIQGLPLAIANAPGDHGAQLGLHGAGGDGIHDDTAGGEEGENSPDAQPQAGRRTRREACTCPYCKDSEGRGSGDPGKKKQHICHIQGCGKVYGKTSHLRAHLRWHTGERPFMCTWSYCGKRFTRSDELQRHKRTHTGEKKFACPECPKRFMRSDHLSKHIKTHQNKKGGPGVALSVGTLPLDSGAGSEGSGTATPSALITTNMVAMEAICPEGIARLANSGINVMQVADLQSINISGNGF
Substance = CCCACCGA; target = SP1; test = protein-binding microarray; system = double-stranded DNA, one strand shown, in vitro; conditions = not given, k-mer, scored over probes, only values ≥0.25; how to read = higher = stronger binding; quantity = E-score; result = 0.283
Substance = PhoQ, residues 284 288 289 292 302 303 SSYNSA; target = PhoP, residues 12 14 15 18 19 TPWLV (Escherichia coli, UniProt P23836); test = Sort-seq, item: YFP reporter; system = E. coli; conditions = PhoQ-PhoP variant library, with: 10 µM Mg2+; how to read = relative to: high Mg2+ state, higher = stronger signaling; quantity = fold induction; result = 0.875
Substance = ACGCCCCA; target = SP1; test = protein-binding microarray; system = double-stranded DNA, one strand shown, in vitro; conditions = not given, k-mer, scored over probes, only values ≥0.25; how to read = higher = stronger binding; quantity = E-score; result = 0.372

Repeated from above (set 2):
Oligonucleotide = GCCTAGCACTCATTTTTCTTTTATTAACTGTGCTAGGTCTTGATTCGCTTGACGCTGCTG; result = 2.51 z-score
